Assay results gathered from unrelated publications.
Parts stem from different laboratories: compare values within a part only.
UniProt O14730, sequence (whole entry, looked up): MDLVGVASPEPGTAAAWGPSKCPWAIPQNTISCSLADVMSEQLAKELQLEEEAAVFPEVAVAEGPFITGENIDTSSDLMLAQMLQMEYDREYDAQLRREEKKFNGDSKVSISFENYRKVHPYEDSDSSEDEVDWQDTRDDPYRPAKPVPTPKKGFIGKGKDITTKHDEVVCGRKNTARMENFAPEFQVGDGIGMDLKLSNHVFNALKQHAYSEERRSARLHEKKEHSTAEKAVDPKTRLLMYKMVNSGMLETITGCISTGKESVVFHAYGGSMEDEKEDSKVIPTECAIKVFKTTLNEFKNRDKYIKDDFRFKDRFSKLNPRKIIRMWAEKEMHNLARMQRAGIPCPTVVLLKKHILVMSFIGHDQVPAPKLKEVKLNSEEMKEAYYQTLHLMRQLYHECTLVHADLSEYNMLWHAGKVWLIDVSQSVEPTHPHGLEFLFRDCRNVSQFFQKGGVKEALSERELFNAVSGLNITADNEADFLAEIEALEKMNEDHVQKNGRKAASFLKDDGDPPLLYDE
UniProt Q16566, sequence (whole entry, looked up): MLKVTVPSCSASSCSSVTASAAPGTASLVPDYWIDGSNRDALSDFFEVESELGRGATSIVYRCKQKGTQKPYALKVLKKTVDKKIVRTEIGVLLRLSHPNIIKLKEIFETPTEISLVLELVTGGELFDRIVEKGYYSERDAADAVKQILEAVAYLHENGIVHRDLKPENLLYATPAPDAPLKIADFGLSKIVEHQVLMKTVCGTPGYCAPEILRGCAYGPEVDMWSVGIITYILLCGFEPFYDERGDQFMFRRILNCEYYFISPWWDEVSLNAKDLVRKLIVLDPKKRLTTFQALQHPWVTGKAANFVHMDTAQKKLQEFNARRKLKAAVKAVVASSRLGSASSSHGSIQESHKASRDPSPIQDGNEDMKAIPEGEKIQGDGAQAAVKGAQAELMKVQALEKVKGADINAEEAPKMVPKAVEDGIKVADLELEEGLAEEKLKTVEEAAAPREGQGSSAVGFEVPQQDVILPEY
UniProt Q14289, sequence (whole entry, looked up): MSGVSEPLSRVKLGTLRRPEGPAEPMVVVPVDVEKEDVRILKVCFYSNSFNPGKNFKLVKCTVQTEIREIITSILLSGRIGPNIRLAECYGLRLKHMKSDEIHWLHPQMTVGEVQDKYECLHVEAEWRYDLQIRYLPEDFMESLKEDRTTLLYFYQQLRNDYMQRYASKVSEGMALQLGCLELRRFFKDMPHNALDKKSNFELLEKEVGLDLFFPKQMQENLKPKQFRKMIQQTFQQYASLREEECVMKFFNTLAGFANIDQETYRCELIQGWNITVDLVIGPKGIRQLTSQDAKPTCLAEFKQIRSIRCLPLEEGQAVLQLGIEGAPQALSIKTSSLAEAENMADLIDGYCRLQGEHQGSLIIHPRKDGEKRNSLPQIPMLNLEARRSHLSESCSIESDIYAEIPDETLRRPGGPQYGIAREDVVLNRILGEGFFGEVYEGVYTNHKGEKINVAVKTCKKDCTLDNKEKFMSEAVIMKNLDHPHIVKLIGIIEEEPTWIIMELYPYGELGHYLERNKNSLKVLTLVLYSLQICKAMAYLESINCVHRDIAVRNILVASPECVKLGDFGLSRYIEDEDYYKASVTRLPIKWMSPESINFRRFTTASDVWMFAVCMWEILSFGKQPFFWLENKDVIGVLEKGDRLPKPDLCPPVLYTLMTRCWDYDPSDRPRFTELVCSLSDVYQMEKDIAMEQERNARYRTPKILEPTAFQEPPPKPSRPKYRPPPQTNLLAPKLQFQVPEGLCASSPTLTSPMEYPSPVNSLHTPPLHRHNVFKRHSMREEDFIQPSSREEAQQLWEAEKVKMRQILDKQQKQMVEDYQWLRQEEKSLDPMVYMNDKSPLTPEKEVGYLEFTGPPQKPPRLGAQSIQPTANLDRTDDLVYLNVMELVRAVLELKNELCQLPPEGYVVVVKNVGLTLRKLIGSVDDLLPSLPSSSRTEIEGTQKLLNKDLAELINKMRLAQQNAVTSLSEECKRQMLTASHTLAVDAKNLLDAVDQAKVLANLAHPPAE
UniProt Q86Y07, sequence (whole entry, looked up): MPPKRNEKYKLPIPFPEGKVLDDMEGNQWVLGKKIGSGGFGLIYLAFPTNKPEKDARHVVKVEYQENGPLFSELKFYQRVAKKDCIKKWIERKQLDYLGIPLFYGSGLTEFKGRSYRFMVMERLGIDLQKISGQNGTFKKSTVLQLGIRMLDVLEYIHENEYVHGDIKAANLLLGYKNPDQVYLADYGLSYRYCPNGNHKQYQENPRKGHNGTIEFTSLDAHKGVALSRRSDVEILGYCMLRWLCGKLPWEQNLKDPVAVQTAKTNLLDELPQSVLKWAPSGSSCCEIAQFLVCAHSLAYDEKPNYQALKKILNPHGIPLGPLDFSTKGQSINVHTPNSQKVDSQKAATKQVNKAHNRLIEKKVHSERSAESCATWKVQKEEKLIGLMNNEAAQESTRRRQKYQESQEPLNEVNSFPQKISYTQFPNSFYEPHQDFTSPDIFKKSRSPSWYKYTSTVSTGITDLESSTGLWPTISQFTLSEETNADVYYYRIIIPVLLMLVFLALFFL

Study 1
Structure (SMILES): CN1CCN(C(=O)c2ccc(NC(=O)Nc3ccc(N(C)c4ccnc(Nc5ccc(CS(C)(=O)=O)cc5)n4)cc3)cc2)CC1
Concentration: 1 µM
target | test | setting | how to read | remaining binding
Serine/threonine-protein kinase PAK 1 (PAK1, Homo sapiens, UniProt Q13153) | competitive binding panel |  | relative to: vehicle | 92%
Phosphatidylinositol 3-kinase C2 domain-containing subunit gamma (PIK3C2G, Homo sapiens, UniProt O75747) | competitive binding panel |  | relative to: vehicle | 100%
Serine/threonine-protein kinase PLK1 (PLK1, Homo sapiens, UniProt P53350) | competitive binding panel |  | relative to: vehicle | 100%
Fibroblast growth factor receptor 3 (FGFR3, Homo sapiens, UniProt P22607, G697C) | competitive binding panel |  | relative to: vehicle | 100%
Ankyrin repeat and protein kinase domain-containing protein 1 (ANKK1, Homo sapiens, UniProt Q8NFD2) | competitive binding panel |  | relative to: vehicle | 28%
Serine/threonine-protein kinase TAO2 (TAOK2, Homo sapiens, UniProt Q9UL54) | competitive binding panel |  | relative to: vehicle | 76%
Calcium/calmodulin-dependent protein kinase type 1B (PNCK, Homo sapiens, UniProt Q6P2M8) | competitive binding | CAMK1B |  | 85%
cAMP-dependent protein kinase catalytic subunit PRKX (PRKX, Homo sapiens, UniProt P51817) | competitive binding panel |  | relative to: vehicle | 100%
Calcium/calmodulin-dependent protein kinase type II subunit gamma (CAMK2G, Homo sapiens, UniProt Q13555) | competitive binding panel |  | relative to: vehicle | 100%
Mitogen-activated protein kinase 14 (MAPK14, Homo sapiens, UniProt Q16539) | competitive binding | p38-alpha |  | 83%
Serine/threonine-protein kinase MRCK alpha (CDC42BPA, Homo sapiens, UniProt Q5VT25) | competitive binding | MRCKA |  | 89%
Insulin-like growth factor 1 receptor (IGF1R, Homo sapiens, UniProt P08069) | competitive binding panel |  | relative to: vehicle | 100%

Study 2
SMILES: C=CC(=O)N1CCC[C@@H](n2nc(-c3ccc(Oc4ccccc4)cc3)c3c(N)ncnc32)C1
Action: inhibitor
Concentration: 1 µM
target | test | inhibition [%]
Protein-tyrosine kinase 2-beta (PTK2B, Homo sapiens, UniProt Q14289) |  | 19
TGF-beta receptor type-1 (TGFBR1, Homo sapiens, UniProt P36897) |  | 16
Mitogen-activated protein kinase kinase kinase 19 (MAP3K19, Homo sapiens, UniProt Q56UN5) | enzyme activity | 24
Receptor-interacting serine/threonine-protein kinase 2 (RIPK2, Homo sapiens, UniProt O43353) | enzyme activity | 96
Serine/threonine-protein kinase WNK3 (WNK3, Homo sapiens, UniProt Q9BYP7) | enzyme activity | 75
Mitogen-activated protein kinase kinase kinase 14 (MAP3K14, Homo sapiens, UniProt Q99558) | enzyme activity | 54
Interleukin-1 receptor-associated kinase 1 (IRAK1, Homo sapiens, UniProt P51617) | enzyme activity | 24
Glycogen synthase kinase-3 alpha (GSK3A, Homo sapiens, UniProt P49840) |  | 6
Casein kinase II subunit alpha (CSNK2A1, Homo sapiens, UniProt P68400) | enzyme activity | 24
Phosphatidylinositol 4-phosphate 5-kinase type-1 alpha (PIP5K1A, Homo sapiens, UniProt Q99755) | enzyme activity | 24
Ribosomal protein S6 kinase beta-1 (RPS6KB1, Homo sapiens, UniProt P23443) | enzyme activity | 20
Cyclin-dependent kinase 8 (CDK8, Homo sapiens, UniProt P49336) |  | 0
Epidermal growth factor receptor (EGFR, Homo sapiens, UniProt P00533, del746-750) |  | 98
Ephrin type-A receptor 6 (EPHA6, Homo sapiens, UniProt Q9UF33) |  | 4

Study 3
Target: Leucine-rich repeat serine/threonine-protein kinase 2 (LRRK2, Homo sapiens, UniProt Q5S007)
UniProt Q5S007, sequence (whole entry, looked up): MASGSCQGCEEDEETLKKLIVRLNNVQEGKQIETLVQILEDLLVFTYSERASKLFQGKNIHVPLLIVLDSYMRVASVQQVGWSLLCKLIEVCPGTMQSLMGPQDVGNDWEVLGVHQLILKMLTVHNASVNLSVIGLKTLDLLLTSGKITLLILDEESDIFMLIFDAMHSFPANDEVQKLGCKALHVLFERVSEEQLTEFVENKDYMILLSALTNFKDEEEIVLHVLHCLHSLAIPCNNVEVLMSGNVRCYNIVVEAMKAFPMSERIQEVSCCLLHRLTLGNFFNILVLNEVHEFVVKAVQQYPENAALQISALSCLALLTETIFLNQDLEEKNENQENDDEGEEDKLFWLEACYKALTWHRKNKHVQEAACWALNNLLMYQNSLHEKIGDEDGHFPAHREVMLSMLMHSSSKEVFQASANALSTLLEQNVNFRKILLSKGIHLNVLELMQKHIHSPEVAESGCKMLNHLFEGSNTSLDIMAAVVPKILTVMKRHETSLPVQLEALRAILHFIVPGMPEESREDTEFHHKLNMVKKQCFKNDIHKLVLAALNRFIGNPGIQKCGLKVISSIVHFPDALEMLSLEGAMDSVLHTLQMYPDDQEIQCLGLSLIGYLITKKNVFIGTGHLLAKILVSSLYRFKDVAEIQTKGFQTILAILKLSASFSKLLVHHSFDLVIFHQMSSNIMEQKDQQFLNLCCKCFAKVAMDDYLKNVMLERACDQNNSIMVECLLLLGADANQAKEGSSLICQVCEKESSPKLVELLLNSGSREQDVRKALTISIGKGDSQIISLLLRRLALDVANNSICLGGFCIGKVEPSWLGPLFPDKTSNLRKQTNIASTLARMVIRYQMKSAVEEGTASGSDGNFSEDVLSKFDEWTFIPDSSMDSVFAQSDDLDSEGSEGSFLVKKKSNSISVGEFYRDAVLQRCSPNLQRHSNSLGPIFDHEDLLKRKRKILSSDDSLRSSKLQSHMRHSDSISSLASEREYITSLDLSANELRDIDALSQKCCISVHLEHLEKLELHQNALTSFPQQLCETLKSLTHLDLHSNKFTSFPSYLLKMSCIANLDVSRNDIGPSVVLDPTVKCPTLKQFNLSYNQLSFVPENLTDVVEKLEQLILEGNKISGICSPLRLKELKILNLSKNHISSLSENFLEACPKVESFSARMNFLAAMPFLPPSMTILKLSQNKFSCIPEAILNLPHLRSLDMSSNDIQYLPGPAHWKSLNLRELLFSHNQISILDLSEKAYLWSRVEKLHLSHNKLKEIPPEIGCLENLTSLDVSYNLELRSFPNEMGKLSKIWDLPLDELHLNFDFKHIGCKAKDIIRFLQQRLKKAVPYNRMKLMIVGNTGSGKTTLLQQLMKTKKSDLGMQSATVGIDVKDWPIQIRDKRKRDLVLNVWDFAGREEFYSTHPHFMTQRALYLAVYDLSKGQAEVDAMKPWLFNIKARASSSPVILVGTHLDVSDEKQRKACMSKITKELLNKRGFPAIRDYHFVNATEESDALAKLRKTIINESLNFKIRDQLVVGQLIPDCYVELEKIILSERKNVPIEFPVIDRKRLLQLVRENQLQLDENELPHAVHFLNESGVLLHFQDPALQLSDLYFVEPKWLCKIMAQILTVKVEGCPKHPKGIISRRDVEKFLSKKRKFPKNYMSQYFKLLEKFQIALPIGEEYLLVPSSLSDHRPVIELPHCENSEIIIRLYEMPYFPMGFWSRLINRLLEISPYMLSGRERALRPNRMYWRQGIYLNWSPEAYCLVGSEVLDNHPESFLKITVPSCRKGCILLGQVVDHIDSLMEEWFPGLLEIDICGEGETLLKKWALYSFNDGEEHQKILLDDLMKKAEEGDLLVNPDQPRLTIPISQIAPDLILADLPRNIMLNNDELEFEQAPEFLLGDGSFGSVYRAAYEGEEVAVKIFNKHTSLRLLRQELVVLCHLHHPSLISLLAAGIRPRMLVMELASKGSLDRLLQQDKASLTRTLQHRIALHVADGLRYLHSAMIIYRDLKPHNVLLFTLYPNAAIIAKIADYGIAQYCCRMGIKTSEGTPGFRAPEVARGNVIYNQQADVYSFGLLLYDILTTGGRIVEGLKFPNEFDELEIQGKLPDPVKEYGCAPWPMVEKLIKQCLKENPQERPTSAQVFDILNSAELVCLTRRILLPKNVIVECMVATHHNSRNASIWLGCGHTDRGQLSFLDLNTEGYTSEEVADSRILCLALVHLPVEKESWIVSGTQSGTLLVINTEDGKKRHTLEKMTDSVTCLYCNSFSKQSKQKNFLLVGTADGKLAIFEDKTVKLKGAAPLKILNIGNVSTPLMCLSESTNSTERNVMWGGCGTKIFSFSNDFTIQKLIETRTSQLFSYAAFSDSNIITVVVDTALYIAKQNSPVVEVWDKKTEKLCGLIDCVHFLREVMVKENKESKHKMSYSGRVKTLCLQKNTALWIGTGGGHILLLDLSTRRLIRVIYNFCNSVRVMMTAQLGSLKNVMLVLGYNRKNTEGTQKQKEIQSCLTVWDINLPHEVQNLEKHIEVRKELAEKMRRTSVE
Effect on: enzyme activity
Action: inhibitor
Concentration: 0.5 µM
Relative to: control
SMILES | remaining activity
CCN(CC)CCNC(=O)c1c(C)[nH]c(/C=C2\C(=O)Nc3ccc(Cl)cc32)c1C | 1.44%
N#Cc1c(NC(=O)c2cccc3ccccc23)sc2c1CCCC2 | 100%
COc1cc2c(cc1OC)-c1[nH]nc(Nc3cccc(F)c3)c1C2 | 82.3%
Cc1nc2cc3nc(-c4cccs4)cnc3cc2n1C | 106%
c1ccc(-c2[nH]ncc2-c2ccnc3ccccc23)nc1 | 93.7%
COc1cc2ncnc(Nc3cccc(Cl)c3)c2cc1OC | 60.9%
O=C(Nc1cccc(Nc2nccc(Nc3cccc(C(F)(F)F)c3)n2)c1)C1CC1 | 93.7%
Cc1cn(-c2cc(NC(=O)c3ccc(C)c(Nc4nccc(-c5cccnc5)n4)c3)cc(C(F)(F)F)c2)cn1 | 81.1%
COc1cc2ncnc(Nc3ccc(O)c(Br)c3)c2cc1OC | 82.7%
Ic1cccc(CSc2nnc(-c3ccncc3)o2)c1 | 91.9%
Nc1cccc(-c2cc3c(Oc4cccc(O)c4)ncnc3[nH]2)c1 | 93.4%
Cc1cc2ncc(-c3ccccc3)nc2cc1C | 94.4%
c1ccc(-c2cnc(Nc3ccc(OCCN4CCCC4)cc3)s2)cc1 | 95.8%
Cn1nc2c3c(cccc31)C(=O)c1ccccc1-2 | 55.9%
O=c1cc(-c2cccc3c2Sc2ccccc2S3)oc(N2CCOCC2)c1 | 102%
C[C@@H]1CCN(C(=O)CC#N)C[C@@H]1N(C)c1ncnc2[nH]ccc12 | 51.3%
CN(C)C[C@H]1CCn2c(c(C3=C(c4cn(C)c5ccccc45)C(=O)NC3=O)c3ccccc32)C1 | 93.1%
O=C1c2ccccc2-c2n[nH]c3cccc1c23 | 62.2%
CCN(CC)C(=O)c1ccc(Nc2nc(OCC3CCCCC3)c3[nH]cnc3n2)cc1 | 2.21%
O=C1C(Cl)=C(N2C(=O)CCC2=O)C(=O)c2ccccc21 | 103%
O=C(NC(NC(=S)Nc1ccc(F)c([N+](=O)[O-])c1)C(Cl)(Cl)Cl)C(c1ccccc1)c1ccccc1 (stereo not drawn) | 99.3%
CN([C@@H](Cc1ccc(OS(=O)(=O)c2cccc3cnccc23)cc1)C(=O)N1CCN(c2ccccc2)CC1)S(=O)(=O)c1cccc2cnccc12 | 97.1%
N#C/C(=C\c1ccc(O)c(O)c1)C(=O)NCc1ccccc1 | 101%
CCOc1nc(NC(=O)Cc2cc(OC)ccc2OC)cc(N)c1C#N | 90.5%

Study 4
Structure (SMILES): CCOCCn1cc(C(=O)Nc2ccc(-n3nc(-c4cccnc4)cc3C(F)(F)F)cn2)ccc1=O
Method: competition with immobilised ligand
Concentration: 1 µM
target | test | remaining binding [%]
Calcium/calmodulin-dependent protein kinase type II subunit beta (CAMK2B, Homo sapiens, UniProt Q13554) | cell-free assay | 90
Mast/stem cell growth factor receptor Kit (KIT, Homo sapiens, UniProt P10721, D816H) | cell-free assay | 79
Vascular endothelial growth factor receptor 1 (FLT1, Homo sapiens, UniProt P17948) | cell-free assay | 100
Proto-oncogene tyrosine-protein kinase receptor Ret (RET, Homo sapiens, UniProt P07949, M918T) | cell-free assay | 91
Serine/threonine-protein kinase RIO3 (RIOK3, Homo sapiens, UniProt O14730) | cell-free assay | 88
Calcium/calmodulin-dependent protein kinase type IV (CAMK4, Homo sapiens, UniProt Q16566) | cell-free assay | 100
Cyclin-dependent kinase 11A (CDK11A, Homo sapiens, UniProt Q9UQ88) | binding | 100
Tyrosine-protein kinase ABL2 (ABL2, Homo sapiens, UniProt P42684) | cell-free assay | 87
Serine/threonine-protein kinase Sgk2 (SGK2, Homo sapiens, UniProt Q9HBY8) | cell-free assay | 100
Ephrin type-A receptor 1 (EPHA1, Homo sapiens, UniProt P21709) | cell-free assay | 82
Dual serine/threonine and tyrosine protein kinase (DSTYK, Homo sapiens, UniProt Q6XUX3) | cell-free assay | 61
Calcium/calmodulin-dependent protein kinase type II subunit delta (CAMK2D, Homo sapiens, UniProt Q13557) | cell-free assay | 100
Death-associated protein kinase 3 (DAPK3, Homo sapiens, UniProt O43293) | cell-free assay | 91
Serine/threonine-protein kinase VRK2 (VRK2, Homo sapiens, UniProt Q86Y07) | cell-free assay | 97
MAP kinase-activated protein kinase 5 (MAPKAPK5, Homo sapiens, UniProt Q8IW41) | cell-free assay | 87
Serine/threonine-protein kinase N2 (PKN2, Homo sapiens, UniProt Q16513) | cell-free assay | 100
Serine/threonine-protein kinase 38-like (STK38L, Homo sapiens, UniProt Q9Y2H1) | cell-free assay | 66
Homeodomain-interacting protein kinase 3 (HIPK3, Homo sapiens, UniProt Q9H422) | cell-free assay | 76
ALK tyrosine kinase receptor (ALK, Homo sapiens, UniProt Q9UM73, C1156Y) | cell-free assay | 100

For quick reference, copied from above (study 3):
SMILES | remaining activity
Cn1nc2c3c(cccc31)C(=O)c1ccccc1-2 | 55.9%
O=C(Nc1cccc(Nc2nccc(Nc3cccc(C(F)(F)F)c3)n2)c1)C1CC1 | 93.7%
O=C(NC(NC(=S)Nc1ccc(F)c([N+](=O)[O-])c1)C(Cl)(Cl)Cl)C(c1ccccc1)c1ccccc1 (stereo not drawn) | 99.3%
Nc1cccc(-c2cc3c(Oc4cccc(O)c4)ncnc3[nH]2)c1 | 93.4%
COc1cc2ncnc(Nc3cccc(Cl)c3)c2cc1OC | 60.9%
c1ccc(-c2cnc(Nc3ccc(OCCN4CCCC4)cc3)s2)cc1 | 95.8%
CN([C@@H](Cc1ccc(OS(=O)(=O)c2cccc3cnccc23)cc1)C(=O)N1CCN(c2ccccc2)CC1)S(=O)(=O)c1cccc2cnccc12 | 97.1%
